Assay results gathered from unrelated publications.
Parts stem from different laboratories: compare values within a part only. Several values in a cell are separate wells, animals, samples, runs or records.
UniProt Q16853, sequence (whole entry, looked up): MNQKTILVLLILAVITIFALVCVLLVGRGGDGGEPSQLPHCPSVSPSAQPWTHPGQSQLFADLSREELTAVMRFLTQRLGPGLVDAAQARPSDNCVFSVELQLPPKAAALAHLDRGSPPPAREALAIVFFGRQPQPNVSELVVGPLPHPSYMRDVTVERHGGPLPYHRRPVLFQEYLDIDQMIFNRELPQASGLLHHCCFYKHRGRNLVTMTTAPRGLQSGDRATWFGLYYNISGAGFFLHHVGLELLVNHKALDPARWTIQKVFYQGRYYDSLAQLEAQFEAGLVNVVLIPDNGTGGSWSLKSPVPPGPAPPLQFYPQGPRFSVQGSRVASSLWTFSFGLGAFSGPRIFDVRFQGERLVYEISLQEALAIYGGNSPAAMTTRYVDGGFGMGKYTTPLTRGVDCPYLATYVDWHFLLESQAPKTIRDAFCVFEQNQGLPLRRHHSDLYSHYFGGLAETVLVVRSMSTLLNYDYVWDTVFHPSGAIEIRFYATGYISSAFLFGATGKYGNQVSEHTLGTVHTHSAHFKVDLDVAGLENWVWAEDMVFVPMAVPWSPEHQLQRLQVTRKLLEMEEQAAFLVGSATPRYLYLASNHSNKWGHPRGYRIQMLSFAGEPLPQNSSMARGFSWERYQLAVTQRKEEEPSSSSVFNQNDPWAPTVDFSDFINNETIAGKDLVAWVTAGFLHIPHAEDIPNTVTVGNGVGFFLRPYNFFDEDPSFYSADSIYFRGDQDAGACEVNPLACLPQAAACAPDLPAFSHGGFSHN
UniProt Q8TDC3, sequence (whole entry, looked up): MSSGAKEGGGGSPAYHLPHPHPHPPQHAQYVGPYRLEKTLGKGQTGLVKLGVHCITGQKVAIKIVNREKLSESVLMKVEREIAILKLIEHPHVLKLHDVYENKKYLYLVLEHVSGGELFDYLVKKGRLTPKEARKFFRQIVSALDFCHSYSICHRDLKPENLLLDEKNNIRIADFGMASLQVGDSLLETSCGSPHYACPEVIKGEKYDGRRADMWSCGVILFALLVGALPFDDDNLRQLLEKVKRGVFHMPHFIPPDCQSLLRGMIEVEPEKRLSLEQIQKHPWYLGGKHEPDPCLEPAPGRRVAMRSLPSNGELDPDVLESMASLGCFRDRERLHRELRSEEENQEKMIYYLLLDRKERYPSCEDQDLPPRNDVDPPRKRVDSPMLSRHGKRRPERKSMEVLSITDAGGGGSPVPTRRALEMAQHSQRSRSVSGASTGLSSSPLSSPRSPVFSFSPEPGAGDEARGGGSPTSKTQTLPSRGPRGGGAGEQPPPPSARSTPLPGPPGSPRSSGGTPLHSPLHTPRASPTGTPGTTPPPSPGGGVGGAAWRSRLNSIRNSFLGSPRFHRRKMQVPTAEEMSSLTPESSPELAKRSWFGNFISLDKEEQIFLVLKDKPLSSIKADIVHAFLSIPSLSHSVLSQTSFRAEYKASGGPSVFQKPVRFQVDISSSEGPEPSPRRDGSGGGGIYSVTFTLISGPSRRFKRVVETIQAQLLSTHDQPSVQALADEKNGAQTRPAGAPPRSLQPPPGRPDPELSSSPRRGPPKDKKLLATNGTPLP
UniProt Q96NX5, sequence (whole entry, looked up): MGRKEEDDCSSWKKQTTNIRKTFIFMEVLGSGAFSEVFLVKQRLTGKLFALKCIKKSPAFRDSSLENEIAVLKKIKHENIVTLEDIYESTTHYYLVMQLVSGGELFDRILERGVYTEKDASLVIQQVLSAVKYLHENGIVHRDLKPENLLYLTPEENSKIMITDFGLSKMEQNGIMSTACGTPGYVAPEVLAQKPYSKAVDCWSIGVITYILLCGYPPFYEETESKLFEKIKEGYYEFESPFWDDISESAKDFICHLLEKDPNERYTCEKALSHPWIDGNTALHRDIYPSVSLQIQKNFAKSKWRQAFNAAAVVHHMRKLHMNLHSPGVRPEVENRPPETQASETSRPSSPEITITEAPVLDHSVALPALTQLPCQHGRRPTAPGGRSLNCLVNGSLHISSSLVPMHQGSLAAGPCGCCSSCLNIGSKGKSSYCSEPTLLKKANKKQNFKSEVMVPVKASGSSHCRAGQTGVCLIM
UniProt Q8IWQ3, sequence (whole entry, looked up): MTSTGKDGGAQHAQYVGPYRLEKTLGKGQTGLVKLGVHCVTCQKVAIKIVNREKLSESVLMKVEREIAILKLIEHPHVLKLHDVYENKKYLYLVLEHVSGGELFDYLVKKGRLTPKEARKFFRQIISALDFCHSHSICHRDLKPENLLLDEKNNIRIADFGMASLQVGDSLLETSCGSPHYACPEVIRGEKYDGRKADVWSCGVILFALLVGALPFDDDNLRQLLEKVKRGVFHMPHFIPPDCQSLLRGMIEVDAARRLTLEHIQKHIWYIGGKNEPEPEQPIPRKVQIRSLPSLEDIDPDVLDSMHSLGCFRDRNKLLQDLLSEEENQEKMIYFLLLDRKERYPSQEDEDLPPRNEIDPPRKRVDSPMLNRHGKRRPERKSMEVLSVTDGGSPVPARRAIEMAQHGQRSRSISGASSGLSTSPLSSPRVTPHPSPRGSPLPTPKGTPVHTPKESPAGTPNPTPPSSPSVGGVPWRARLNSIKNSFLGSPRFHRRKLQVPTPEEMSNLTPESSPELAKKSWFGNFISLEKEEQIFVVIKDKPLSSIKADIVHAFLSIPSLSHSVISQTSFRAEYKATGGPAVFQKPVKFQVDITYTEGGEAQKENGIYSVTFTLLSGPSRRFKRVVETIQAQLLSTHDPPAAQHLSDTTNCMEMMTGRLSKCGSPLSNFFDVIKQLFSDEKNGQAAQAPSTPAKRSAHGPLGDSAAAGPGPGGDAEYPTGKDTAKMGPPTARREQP
UniProt Q9Y2H1, sequence (whole entry, looked up): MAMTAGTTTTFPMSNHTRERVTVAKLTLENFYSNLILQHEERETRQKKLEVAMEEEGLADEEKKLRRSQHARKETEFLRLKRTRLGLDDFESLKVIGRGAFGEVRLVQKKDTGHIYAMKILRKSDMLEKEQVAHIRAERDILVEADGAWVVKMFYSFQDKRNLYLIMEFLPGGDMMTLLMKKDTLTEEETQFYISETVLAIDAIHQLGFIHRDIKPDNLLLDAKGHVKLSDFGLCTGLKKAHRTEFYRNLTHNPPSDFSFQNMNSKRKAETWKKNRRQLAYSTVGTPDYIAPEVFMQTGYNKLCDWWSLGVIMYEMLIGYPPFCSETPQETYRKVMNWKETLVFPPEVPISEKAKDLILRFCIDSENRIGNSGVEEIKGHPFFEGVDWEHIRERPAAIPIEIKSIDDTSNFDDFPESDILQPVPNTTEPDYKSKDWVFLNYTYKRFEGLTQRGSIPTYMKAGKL
UniProt P49761, sequence (whole entry, looked up): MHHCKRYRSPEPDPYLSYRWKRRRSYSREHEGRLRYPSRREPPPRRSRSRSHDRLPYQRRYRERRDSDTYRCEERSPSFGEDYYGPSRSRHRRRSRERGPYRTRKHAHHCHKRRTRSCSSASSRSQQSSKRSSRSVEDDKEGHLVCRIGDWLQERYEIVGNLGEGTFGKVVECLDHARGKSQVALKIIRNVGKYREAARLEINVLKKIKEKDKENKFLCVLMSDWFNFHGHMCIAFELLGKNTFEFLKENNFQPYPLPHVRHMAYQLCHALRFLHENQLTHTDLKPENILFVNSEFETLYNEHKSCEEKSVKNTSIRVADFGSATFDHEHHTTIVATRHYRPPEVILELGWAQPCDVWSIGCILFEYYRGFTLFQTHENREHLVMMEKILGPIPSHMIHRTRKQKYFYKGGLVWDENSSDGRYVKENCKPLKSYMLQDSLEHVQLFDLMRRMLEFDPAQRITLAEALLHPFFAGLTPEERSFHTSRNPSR

Sample 1
Compound: NC/C(=C\F)COc1cc(Cl)cc(-c2cc(=O)[nH]c(=S)n2CC(N)=O)c1
Observed: enzyme activity
Mode: inhibitor
Technique: fluorescence
MPO: Myeloperoxidase (MPO, Homo sapiens, UniProt P05164)
UniProt P05164, sequence (whole entry, looked up): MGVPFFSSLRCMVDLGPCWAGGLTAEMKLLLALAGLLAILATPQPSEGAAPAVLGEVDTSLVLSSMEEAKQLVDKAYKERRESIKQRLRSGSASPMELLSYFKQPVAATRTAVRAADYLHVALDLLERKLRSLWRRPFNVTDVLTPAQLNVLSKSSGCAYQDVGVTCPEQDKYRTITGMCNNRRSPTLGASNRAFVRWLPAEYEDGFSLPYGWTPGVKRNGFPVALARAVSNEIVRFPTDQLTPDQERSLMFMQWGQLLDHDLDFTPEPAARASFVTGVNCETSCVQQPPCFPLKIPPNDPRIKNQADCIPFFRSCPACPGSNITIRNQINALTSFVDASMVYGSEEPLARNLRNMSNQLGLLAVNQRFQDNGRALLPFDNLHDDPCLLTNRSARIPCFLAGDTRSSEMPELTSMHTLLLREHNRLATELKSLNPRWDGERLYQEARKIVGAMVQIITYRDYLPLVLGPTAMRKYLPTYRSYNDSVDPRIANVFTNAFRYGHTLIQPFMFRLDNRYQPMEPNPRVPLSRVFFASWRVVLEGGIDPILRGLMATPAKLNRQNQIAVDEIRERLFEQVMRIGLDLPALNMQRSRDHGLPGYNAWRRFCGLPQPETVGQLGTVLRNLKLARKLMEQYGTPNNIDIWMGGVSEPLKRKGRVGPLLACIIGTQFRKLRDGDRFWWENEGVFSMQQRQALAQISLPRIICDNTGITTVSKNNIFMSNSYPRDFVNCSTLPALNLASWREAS
target	setting	inhibition
MPO	61.7 nM	5.48% and 13.7%
MPO	1.111 µM	81.1%
AOC3 (Homo sapiens, UniProt Q16853)	1.5 nM	4.09% and -2.32% and 5.67%
MPO	0.3704 µM	67.3%
MPO	41.2 nM	14.6%
MPO	1.5 nM	2.4%
MPO	4.6 nM	-3.63%
MPO	500 pM	-7.87%

Sample 2
SMILES: CCC1(c2cccc(-c3cn(C)nc3C)c2)C2=C(Nc3n[nH]cc31)C(F)C(C)(C)CC2=O (single isomer, unassigned)
Concentration: 1 µM
target	test	how to read	remaining binding [%]
BRSK2 (Homo sapiens, UniProt Q8IWQ3)	kinase binding, KINOMEscan	baseline: DMSO control	100
STK39 (Homo sapiens, UniProt Q9UEW8)	kinase binding, KINOMEscan	baseline: DMSO control	88
BRSK1 (Homo sapiens, UniProt Q8TDC3)	kinase binding, KINOMEscan	baseline: DMSO control	100
STK38L (Homo sapiens, UniProt Q9Y2H1)	binding, competition with immobilised ligand	–	98
CAMK1G (Homo sapiens, UniProt Q96NX5)	binding, competition with immobilised ligand	–	97
EGFR (Homo sapiens, UniProt P00533, T790M)	kinase binding, KINOMEscan	baseline: DMSO control	100
CLK3 (Homo sapiens, UniProt P49761)	binding, competition with immobilised ligand	–	100
WNK1 (Homo sapiens, UniProt Q9H4A3)	kinase binding, KINOMEscan	baseline: DMSO control	100

Sample 3
Target: Receptor-interacting serine/threonine-protein kinase 3 (RIPK3, Homo sapiens, UniProt Q9Y572)
UniProt Q9Y572, sequence (whole entry, looked up): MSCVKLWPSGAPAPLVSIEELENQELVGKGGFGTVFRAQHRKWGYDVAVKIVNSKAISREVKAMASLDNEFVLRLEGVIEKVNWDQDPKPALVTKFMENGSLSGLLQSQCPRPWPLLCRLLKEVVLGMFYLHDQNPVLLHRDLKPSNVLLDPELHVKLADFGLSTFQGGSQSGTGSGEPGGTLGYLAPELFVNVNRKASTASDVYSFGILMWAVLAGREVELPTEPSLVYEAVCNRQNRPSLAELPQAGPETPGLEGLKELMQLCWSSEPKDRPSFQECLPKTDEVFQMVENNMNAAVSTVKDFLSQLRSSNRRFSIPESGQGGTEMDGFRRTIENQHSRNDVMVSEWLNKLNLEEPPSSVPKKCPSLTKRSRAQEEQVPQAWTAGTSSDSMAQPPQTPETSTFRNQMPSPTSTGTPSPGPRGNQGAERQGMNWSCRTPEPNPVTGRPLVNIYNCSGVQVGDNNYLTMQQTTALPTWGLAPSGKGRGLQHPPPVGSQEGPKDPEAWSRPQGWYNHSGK
Observed: enzyme activity
Mode: inhibitor
Technique: ADP detection
Compound	IC50 [nM]
Cc1c(NC(=O)c2cccn(-c3ccc(F)cc3)c2=O)ccc(Oc2ccnc(NC(=O)C3CC3)c2)c1C	56.3
Cc1cc(-c2cnc(N)c3c(-c4ccc5scnc5c4)csc23)n(C)n1	49.4
CC(C)(C)n1nc(-c2ccc(Cl)cc2)c2c(N)ncnc21	28.6

Further values, each from its own experiment
Structure (SMILES)	system	setting	quantity	result
Cn1cc(-c2cccc(CN3CCC4(CC3)COc3c4ccc4c3CN([C@H]3CCC(=O)NC3=O)C4=O)c2)cn1	Crbn I391V mouse, MC-38 tumour	oral, 30 mg/kg once daily, day 18	tumour volume	27 mm3 and 472 mm3 and 161 mm3 and 436 mm3 and 898 mm3

For quick reference, copied from above (sample 2):
target	test	how to read	remaining binding [%]
STK38L (Homo sapiens, UniProt Q9Y2H1)	binding, competition with immobilised ligand	–	98
CAMK1G (Homo sapiens, UniProt Q96NX5)	binding, competition with immobilised ligand	–	97
BRSK1 (Homo sapiens, UniProt Q8TDC3)	kinase binding, KINOMEscan	baseline: DMSO control	100
